Experimental data gathered from unrelated publications.
Each numbered part is a random draw from the data of one study; scales do not carry over between parts. Positions count from the first letter of the parent shown.

Study 1
Target: CCNA1, cyclin fold, Cln2 fusion (human)
Technique: yeast growth competition, sequencing
Sample: yeast
Setting: weak parent motif
Relative to: not given
Direction: higher = stronger binding
Starting sequence: MASTL docking peptide (human); PMIAKNLMCELDE
Change	normalised enrichment score
PMIAKNLMCWLDE [E10W]	-0.0561
PMIAKNLMCELKE [D12K]	0.0376
PMIFKNLMCELDE [A4F]	0.0493
PMIAKNLFCELDE [M8F]	0.0113
PGIAKNLMCELDE [M2G]	0.222
PMIAKNLMCMLDE [E10M]	0.18
PMIAKNLVCELDE [M8V]	0.235
PMIAKNKMCELDE [L7K]	0.44

Study 2
Target: UBE2U UBC core domain (UniProt Q5VVX9)
Technique: yeast two-hybrid
Sample: yeast
Setting: mostly zero background
Relative to: not given
Direction: higher = stronger interaction
B1: TRIM48 RING domain (UniProt Q8IWZ4); chain ISQVFQRELTCPICMNYFIDPVTIDCGHSFCRPCFYLNWQDIPILTQCFECIKTIQQRNLKT
B2: ZNRF3 RING domain (UniProt Q9ULT6); chain DTLSSSSTSDCAICLEKYIDGEELRVIPCTHRFHRKCVDPWLLQHHTCPHCRHNIIEQKGNP
B3: PRKN RING domain (UniProt O60260); chain LIATNSRNITCITCTDVRSPVLVFQCNSRHVICLDCFHLYCVTRLNDRQFVHDPQLGYSLPCVAGCPNSLIKELHH
Residues (chain): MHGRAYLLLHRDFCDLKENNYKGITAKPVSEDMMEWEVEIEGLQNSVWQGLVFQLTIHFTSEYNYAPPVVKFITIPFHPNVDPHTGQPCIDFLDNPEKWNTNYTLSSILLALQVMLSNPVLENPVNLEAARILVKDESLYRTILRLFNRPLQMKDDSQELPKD
Molecule	lacZ reporter activity
B1 (TRIM48 RING domain)	0
B2 (ZNRF3 RING domain)	0
MDDQGCPRCKTTKYRNPSLKLMVNVCGHTLCESCVDLLFVRGAGNCPECGTPLRKSNFRV (MNAT1 RING domain (UniProt P51948))	0
KEQLEKHNDICAICYQDMKSAVITPCSHFFHAGCLKKWLYVQETCPLCHCHLKNSSQLP (RNF145 RING domain (UniProt Q96MT1))	10000
B3 (PRKN RING domain)	5130
KLWDINAHITCRLCSGYLIDATTVTECLHTFCRSCLVKYLEENNTCPTCRIVIHQSHPLQ (PCGF3 RING domain (UniProt Q3KNV8))	0
KITELNPHLMCVLCGGYFIDATTIIECLHSFCKTCIVRYLETSKYCPICDVQVHKTRPLL (BMI1 RING domain (UniProt P35226))	15800
QLRRLQEERTCKVCLDRAVSIVFVPCGHLVCAECAPGLQLCPICRAPVRSRVRTF (BIRC7 RING domain (UniProt Q96CA5))	0

Study 3
Target: Hepatocyte nuclear factor 3-alpha (Foxa1, Mus musculus, UniProt P35582, residues 1-468, full length assumed)
Sequence of UniProt P35582 (whole entry, looked up): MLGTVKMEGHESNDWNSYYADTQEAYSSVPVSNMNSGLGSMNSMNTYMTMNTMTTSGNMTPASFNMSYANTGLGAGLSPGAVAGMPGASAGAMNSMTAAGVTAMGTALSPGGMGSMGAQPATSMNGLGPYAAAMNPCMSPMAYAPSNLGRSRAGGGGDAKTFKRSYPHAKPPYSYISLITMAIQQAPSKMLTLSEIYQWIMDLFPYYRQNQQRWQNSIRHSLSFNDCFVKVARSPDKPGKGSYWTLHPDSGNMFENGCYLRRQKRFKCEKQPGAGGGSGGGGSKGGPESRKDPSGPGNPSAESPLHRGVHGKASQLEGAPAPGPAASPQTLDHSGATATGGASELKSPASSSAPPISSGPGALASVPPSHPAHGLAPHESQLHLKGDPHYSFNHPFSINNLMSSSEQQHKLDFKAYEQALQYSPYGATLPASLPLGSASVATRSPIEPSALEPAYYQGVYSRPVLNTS
Technique: EMSA with sequencing
Molecule type: double-stranded DNA, one strand shown
Sample: in vitro
Tested at: 10 and 20 nM
Setting: whole designed probe, mean of two concentrations, ends assumed
Relative to: negative control set to 0
Direction: higher = stronger binding
All sequences stand within: GTGAGCGGTGCCCATTGATGGGGAAC … TTTCACTGGGATCGTGGGGAC
Sequence	normalised bound fraction [ratio]
CTCCTGACCTGGGACCCCACAGAGCTGGGCCTGTCATCACATTTATGGGGCTGCAGCTGACCTGGGAACTCCCTTCCTCAGTCAGTCCACAAATATTTACCCAGAGCCTCAGGGTGCTCAGTGAGCATTACAAAACAAAGTGCAGAGTCACGTGCCAGGGCACAGCAATCCCGGGCAAAACAGACCGAAACCC	0.147
CTGAATCCGCCTTCTGTCCCACACCCAACTCCTGCTCTGCCTCTGCAGCCACCTGCAGGCTCTCAGCGCACTCCTCAAAATCTATTTCTGCTGTGTTTACCCAACACGACGAGCAGGAAACTCCCTTGAAATTCCCAGGCCTTTCCCAGAGTTCCTCAGTTCCTTTTCTTAAAATTCCTGCTGTCCCCAAAGA	0.21
AGAGGTTCTGCCTTATCAGAGTCCCTGACCCACAGTGAGAAATTAATACACATATTTTTGAATAAATTTTGAATAAGTAACTGGGGATTTAAGTAATCTAGAAATTACCCTATAGTGAGAGAAGAGTTTTAACATGTGGTGAGTGGTACAAAGTAGCACACCCAAGGTCGTGGGTTAATGACTTCCTTCCTTG	-0.0594
GTGGGTAACTGAGAGAAAGCCATAAAGGTAAAGTGGCATGTTAATCACATCATATCGATGATACATACTATTCATATGATTTATGATTATTGATGTTGGCCTTGATGACCTTGCTGAGATAGTATTTGTCAGGTTTCTCCACTGTAAAACTCCCCCATTTCTATATCGTACTCTTTGAAGGAAGTGACAATGT	-0.0313
TTTTTTAATAAGAGGGACACTCAGTGAAATTTTTGCGTGAAAATAAGATAAAGTTCTATTGTTCAGCTTTTAATGATAGCATGGAATTCTAAGTAAACATGGATGAAATACAACTTGTCAGCACAAAAATACTGCCTGTCATAGTCATTTGTGTATAAAATATGACCCGCAGGTTTGAACCATATGGTTACAT	0.24

Other studies, line by line
Molecule	target	read-out	molecule type	tested at	quantity	result
MLTNASGHA	HLA class I histocompatibility antigen, A alpha chain, allele A*25:01 (Homo sapiens, UniProt P04439)	peptide-MHC binding	peptide	concentration not given	binding	inactive

A few entries again (study 3):
Sequence	normalised bound fraction [ratio]
CTCCTGACCTGGGACCCCACAGAGCTGGGCCTGTCATCACATTTATGGGGCTGCAGCTGACCTGGGAACTCCCTTCCTCAGTCAGTCCACAAATATTTACCCAGAGCCTCAGGGTGCTCAGTGAGCATTACAAAACAAAGTGCAGAGTCACGTGCCAGGGCACAGCAATCCCGGGCAAAACAGACCGAAACCC	0.147
CTGAATCCGCCTTCTGTCCCACACCCAACTCCTGCTCTGCCTCTGCAGCCACCTGCAGGCTCTCAGCGCACTCCTCAAAATCTATTTCTGCTGTGTTTACCCAACACGACGAGCAGGAAACTCCCTTGAAATTCCCAGGCCTTTCCCAGAGTTCCTCAGTTCCTTTTCTTAAAATTCCTGCTGTCCCCAAAGA	0.21
AGAGGTTCTGCCTTATCAGAGTCCCTGACCCACAGTGAGAAATTAATACACATATTTTTGAATAAATTTTGAATAAGTAACTGGGGATTTAAGTAATCTAGAAATTACCCTATAGTGAGAGAAGAGTTTTAACATGTGGTGAGTGGTACAAAGTAGCACACCCAAGGTCGTGGGTTAATGACTTCCTTCCTTG	-0.0594
GTGGGTAACTGAGAGAAAGCCATAAAGGTAAAGTGGCATGTTAATCACATCATATCGATGATACATACTATTCATATGATTTATGATTATTGATGTTGGCCTTGATGACCTTGCTGAGATAGTATTTGTCAGGTTTCTCCACTGTAAAACTCCCCCATTTCTATATCGTACTCTTTGAAGGAAGTGACAATGT	-0.0313
